Measured values pooled from the literature.
Each numbered part is a random draw from the data of one study; scales do not carry over between parts.
UniProt P32298, sequence (whole entry, looked up): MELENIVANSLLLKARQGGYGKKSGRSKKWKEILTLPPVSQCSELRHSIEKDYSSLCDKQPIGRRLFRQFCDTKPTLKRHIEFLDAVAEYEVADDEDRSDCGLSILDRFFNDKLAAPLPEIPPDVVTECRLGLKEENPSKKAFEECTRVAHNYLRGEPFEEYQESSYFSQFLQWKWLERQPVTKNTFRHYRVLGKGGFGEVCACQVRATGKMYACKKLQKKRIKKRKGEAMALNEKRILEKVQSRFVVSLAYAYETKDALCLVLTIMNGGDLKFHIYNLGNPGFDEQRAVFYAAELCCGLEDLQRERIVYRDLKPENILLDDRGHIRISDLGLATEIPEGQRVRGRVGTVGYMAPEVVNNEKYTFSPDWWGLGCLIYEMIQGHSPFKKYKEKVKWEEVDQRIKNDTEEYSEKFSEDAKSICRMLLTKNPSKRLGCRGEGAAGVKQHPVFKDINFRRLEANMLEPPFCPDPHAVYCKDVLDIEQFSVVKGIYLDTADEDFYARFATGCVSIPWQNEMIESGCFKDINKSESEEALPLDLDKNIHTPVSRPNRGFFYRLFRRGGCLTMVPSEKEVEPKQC
UniProt Q16566, sequence (whole entry, looked up): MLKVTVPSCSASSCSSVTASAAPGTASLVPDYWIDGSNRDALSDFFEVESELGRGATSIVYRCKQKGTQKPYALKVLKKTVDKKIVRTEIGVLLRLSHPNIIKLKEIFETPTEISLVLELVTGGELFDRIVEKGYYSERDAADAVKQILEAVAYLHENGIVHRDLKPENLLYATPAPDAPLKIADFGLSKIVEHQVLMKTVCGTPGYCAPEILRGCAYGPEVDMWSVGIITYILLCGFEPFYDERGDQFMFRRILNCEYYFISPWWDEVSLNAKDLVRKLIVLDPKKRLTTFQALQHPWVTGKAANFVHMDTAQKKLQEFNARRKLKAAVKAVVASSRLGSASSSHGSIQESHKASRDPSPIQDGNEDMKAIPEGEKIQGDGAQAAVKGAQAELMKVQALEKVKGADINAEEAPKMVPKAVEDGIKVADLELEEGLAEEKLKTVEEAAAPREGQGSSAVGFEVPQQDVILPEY
UniProt Q13237, sequence (whole entry, looked up): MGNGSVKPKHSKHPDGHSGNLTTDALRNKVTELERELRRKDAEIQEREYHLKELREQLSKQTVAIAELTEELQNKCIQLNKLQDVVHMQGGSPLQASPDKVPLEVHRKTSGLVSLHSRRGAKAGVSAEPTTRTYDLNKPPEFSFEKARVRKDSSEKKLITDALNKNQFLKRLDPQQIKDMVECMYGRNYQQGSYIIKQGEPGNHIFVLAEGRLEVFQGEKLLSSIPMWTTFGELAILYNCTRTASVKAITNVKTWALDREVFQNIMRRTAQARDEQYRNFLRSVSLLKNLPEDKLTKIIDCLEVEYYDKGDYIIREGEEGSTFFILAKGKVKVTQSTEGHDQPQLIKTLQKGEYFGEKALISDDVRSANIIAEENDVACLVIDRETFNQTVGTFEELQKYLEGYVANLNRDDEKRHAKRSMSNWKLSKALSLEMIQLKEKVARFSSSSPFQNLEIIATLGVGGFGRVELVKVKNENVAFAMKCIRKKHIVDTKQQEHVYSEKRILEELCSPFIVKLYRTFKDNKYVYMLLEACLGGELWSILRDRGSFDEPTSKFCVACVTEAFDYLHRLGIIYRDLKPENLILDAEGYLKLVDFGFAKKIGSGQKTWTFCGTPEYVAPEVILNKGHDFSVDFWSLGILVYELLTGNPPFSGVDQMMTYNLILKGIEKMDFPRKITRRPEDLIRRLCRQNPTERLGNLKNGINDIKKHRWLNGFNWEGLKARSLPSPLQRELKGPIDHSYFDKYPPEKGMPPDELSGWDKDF
UniProt P08581, sequence (whole entry, looked up): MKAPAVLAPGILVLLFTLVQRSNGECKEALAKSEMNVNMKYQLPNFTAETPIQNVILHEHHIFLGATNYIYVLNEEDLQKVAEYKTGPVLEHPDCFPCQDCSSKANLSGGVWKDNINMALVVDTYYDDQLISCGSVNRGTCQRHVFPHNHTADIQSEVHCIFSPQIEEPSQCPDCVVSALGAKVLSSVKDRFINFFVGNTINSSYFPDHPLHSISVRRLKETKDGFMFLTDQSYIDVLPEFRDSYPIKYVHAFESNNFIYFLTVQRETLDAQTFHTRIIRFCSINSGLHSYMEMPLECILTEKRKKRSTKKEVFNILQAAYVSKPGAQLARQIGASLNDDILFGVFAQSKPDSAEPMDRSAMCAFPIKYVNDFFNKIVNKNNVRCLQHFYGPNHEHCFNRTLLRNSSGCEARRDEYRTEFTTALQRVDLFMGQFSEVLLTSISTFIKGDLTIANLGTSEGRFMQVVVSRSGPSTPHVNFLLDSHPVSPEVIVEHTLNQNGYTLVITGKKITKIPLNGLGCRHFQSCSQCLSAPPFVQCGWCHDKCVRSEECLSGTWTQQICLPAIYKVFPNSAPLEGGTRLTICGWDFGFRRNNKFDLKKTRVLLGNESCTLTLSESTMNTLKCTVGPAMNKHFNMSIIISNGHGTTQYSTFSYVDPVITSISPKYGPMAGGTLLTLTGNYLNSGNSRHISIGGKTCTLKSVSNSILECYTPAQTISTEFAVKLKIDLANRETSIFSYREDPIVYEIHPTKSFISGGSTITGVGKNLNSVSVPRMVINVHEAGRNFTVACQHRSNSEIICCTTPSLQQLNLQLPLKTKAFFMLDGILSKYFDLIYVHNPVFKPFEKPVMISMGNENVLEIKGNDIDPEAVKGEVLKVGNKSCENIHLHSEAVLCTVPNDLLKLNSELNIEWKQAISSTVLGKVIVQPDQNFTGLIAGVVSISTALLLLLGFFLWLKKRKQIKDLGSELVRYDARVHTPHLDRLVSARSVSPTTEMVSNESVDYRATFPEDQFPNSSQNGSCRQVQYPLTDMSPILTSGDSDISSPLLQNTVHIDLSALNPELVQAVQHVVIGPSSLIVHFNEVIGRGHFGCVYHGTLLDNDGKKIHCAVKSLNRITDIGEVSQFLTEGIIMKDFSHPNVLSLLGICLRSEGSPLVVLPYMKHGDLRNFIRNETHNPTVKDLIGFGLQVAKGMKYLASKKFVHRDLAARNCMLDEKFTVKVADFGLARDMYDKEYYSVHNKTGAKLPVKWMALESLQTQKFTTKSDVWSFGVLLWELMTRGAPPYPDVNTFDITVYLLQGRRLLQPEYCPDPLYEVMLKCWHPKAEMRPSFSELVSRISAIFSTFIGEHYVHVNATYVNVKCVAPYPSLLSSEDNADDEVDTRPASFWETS
UniProt Q9H4B4, sequence (whole entry, looked up): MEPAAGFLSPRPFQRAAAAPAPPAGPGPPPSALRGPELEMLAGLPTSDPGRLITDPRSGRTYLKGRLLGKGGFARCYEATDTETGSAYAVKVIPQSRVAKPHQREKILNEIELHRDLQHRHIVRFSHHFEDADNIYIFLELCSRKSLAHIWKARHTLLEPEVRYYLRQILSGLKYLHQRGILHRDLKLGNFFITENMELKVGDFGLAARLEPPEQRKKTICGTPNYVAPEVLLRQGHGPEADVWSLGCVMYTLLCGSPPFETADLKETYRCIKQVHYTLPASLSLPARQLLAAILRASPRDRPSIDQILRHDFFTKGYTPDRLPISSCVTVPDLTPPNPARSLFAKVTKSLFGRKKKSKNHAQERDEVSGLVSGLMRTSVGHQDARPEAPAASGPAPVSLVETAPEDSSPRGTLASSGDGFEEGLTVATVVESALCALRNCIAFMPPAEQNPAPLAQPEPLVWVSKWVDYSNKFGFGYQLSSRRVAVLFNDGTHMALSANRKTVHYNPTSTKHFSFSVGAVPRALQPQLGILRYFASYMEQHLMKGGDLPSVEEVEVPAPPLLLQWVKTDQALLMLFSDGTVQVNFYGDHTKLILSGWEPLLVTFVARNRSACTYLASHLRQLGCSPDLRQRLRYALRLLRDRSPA
UniProt P28482, sequence (whole entry, looked up): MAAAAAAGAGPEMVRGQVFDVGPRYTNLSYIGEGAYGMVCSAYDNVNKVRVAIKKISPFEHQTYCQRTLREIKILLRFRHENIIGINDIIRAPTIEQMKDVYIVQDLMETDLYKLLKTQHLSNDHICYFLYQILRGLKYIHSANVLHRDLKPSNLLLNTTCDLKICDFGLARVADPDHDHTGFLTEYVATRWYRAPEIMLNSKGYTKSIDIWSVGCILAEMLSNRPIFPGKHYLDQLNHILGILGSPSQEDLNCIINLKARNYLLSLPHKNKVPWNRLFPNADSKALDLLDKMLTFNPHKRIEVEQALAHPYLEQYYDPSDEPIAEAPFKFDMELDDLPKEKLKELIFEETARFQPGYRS

Set 1 — SMILES: O=C1c2ccccc2-c2nc3nnnn3nc21; effect on: enzyme activity; mode: inhibitor; tested at: 0.5 µM; reference: control; endpoint: remaining activity
Myosin-IIIb (MYO3B, Homo sapiens, UniProt Q8WXR4): 88.4%
CAMK4 (Homo sapiens, UniProt Q16566): 85.4%
PRKG2 (Homo sapiens, UniProt Q13237): 140%
CDC42BPB (Homo sapiens, UniProt Q9Y5S2): 82.6%
MAPK1 (Homo sapiens, UniProt P28482): 87.5%
GRK4 (Homo sapiens, UniProt P32298): 68.4%
MINK1 (Homo sapiens, UniProt Q8N4C8): 91.2%
CLK3 (Homo sapiens, UniProt P49761): 81.2%
PAK3 (Homo sapiens, UniProt O75914): 97.1%
PLK3 (Homo sapiens, UniProt Q9H4B4): 28.5%
KDR (Homo sapiens, UniProt P35968): 1.95%
TLK2 (Homo sapiens, UniProt Q86UE8): 100%
AKT2 (Homo sapiens, UniProt P31751): 55.8%
MET (Homo sapiens, UniProt P08581): 83.3%
MARK4 (Homo sapiens, UniProt Q96L34): 88.1%

Set 2 — effect on: enzyme activity; mode: inhibitor; tested at: 10 µM; endpoint: inhibition
Target: Calcium/calmodulin-dependent protein kinase type II subunit alpha (CAMK2A, Homo sapiens, UniProt Q9UQM7)
UniProt Q9UQM7, sequence (whole entry, looked up): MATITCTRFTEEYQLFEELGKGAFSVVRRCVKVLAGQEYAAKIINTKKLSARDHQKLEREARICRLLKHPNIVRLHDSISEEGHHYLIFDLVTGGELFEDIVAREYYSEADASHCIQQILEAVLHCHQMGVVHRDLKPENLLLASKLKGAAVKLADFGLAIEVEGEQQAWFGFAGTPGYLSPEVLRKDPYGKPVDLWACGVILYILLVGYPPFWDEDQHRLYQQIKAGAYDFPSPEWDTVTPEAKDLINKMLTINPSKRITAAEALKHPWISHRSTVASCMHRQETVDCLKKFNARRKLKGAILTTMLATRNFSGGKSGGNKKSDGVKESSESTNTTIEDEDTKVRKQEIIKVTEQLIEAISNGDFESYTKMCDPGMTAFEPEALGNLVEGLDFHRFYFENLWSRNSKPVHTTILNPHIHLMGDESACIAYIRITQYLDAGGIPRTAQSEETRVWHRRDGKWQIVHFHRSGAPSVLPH
O=C(/C=C/c1ccc(O)c(O)c1)OC[C@@H](O)CO[C@@H]1O[C@H](CO)[C@@H](O)[C@H](O)[C@H]1O: -15%
CCCC/C=C\CCCCCCCc1cc(=O)c2ccccc2n1C: -54%
CCOC(=O)[C@H](CCc1ccccc1)N[C@H]1CCc2ccccc2N(CC(=O)O)C1=O: -1%
CC(C)=CCC[C@](C)(O[C@@H]1O[C@H](CO[C@@H]2O[C@@H](CO)[C@H](O)[C@H]2O)[C@@H](O)[C@H](O)[C@H]1O)[C@H]1CC[C@]2(C)[C@@H]1[C@H](O)C[C@@H]1[C@@]3(C)CC[C@H](O[C@@H]4O[C@H](CO)[C@@H](O)[C@H](O)[C@H]4O[C@@H]4O[C@H](CO)[C@@H](O)[C@H](O)[C@H]4O)C(C)(C)[C@@H]3CC[C@]12C: 10%
CC(C)CC(=O)C(=O)O: -9%

Set 3 — effect on: ligand displacement; tested at: 10 µM; endpoint: inhibition
Target: Histamine H2 receptor (HRH2, Homo sapiens, UniProt P25021)
UniProt P25021, sequence (whole entry, looked up): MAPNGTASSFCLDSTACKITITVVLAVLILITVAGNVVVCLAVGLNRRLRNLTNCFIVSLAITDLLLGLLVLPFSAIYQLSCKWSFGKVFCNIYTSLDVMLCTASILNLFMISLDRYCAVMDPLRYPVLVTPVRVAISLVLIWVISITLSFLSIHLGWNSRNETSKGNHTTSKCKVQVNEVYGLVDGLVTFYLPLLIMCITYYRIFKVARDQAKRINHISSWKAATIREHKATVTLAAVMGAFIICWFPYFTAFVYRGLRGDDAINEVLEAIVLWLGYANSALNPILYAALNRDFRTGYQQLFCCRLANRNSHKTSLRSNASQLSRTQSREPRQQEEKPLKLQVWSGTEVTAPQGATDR
CCC(=NO)C(C)=Cc1ccc(F)c(C)c1: -11.2%
COc1ccc2cc(OCC3(C(=O)O)CN(C(=O)c4ccc(F)cc4)C3)ccc2c1: 3%
O=C1NC(c2ccccn2)Sc2ccccc21 (centres unmarked): 24.8%
Cc1ccccc1Oc1cc(-n2c(=O)cc(C(F)(F)F)[nH]c2=O)c2ccccc2c1Cl: 5.46%
NS(=O)(=O)c1cc(NC(=O)Cc2ccccc2)ccc1Oc1cccc(Cl)c1: -4.85%
C[C@@H](c1cccc(C#N)c1)n1cc(Cl)cc(C(N)=O)c1=N: 8.25%
Cn1cc(Cl)c2c(Oc3c(F)cc(Nc4cc(Cl)nc(N)n4)cc3F)ccnc21: 16.7%
COc1cc(C(=O)O)ncc1C#Cc1ccccc1NS(=O)(=O)c1cccc2c(N(C)C)ccnc12: -19.5%
Cc1ncc(-c2cc(Cl)ccc2F)cc1-n1c(=O)n(CC(N)=O)c2ccccc21: -19.7%
Cn1nc(C(=O)NCc2ccc(C(=O)O)cc2)cc1-c1ccc2[nH]ccc2c1: 8.57%

Set 4 — cell line: A-375; tested at: 100 µM; time: 18 h; endpoint: viability
C=C[C@H]1[C@H](O[C@@H]2O[C@H](CO)[C@@H](O)[C@H](O)[C@H]2O)OC=C2C(=O)OCC[C@]21O: 92.9%
O=C(NC1CCN(CCCCC2(C(=O)NCC(F)(F)F)c3ccccc3-c3ccccc32)CC1)c1ccccc1-c1ccc(C(F)(F)F)cc1: 11%
O=C(/C=C/c1ccc(O)cc1)c1ccc(O)cc1O: 75.2%
CCOc1cc(CC(=O)N[C@@H](CC(C)C)c2ccccc2N2CCCCC2)ccc1C(=O)O: 73.8%
Brc1c(NC2=NCCN2)ccc2nccnc12: 102%
CNC(=C[N+](=O)[O-])NCCSCc1csc(CN(C)C)n1: 113%
C[C@]12C=CC(=O)C=C1CC[C@H]1[C@@H]3C[C@@H](O)[C@](O)(C(=O)CO)[C@@]3(C)C[C@H](O)[C@@]12F: 90.9%
Nc1nc2[nH]cc(CCc3ccc(C(=O)O)cc3)c2c(=O)[nH]1: 99.2%

Excerpt of the above (set 1):
MAPK1 (Homo sapiens, UniProt P28482): 87.5%
MINK1 (Homo sapiens, UniProt Q8N4C8): 91.2%
